# Assay results of several laboratories.
# The chains behind the UniProt entries cited, without tags or fusion partners. Residues count along the entry.
# UniProt O43353, whole entry: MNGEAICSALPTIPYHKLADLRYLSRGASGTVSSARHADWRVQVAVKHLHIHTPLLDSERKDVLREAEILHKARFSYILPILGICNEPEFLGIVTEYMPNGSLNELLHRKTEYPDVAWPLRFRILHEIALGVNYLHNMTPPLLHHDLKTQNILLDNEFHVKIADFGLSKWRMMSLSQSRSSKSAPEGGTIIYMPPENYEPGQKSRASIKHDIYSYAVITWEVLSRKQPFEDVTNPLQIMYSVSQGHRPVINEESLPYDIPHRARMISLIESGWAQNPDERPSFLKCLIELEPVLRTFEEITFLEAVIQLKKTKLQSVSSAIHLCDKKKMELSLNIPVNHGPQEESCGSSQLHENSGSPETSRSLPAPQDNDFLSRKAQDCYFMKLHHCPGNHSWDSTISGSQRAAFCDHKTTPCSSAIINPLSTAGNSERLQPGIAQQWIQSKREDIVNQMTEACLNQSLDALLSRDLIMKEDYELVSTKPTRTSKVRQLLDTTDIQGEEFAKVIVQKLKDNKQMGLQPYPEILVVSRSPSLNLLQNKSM
# UniProt P05067, whole entry, looked up: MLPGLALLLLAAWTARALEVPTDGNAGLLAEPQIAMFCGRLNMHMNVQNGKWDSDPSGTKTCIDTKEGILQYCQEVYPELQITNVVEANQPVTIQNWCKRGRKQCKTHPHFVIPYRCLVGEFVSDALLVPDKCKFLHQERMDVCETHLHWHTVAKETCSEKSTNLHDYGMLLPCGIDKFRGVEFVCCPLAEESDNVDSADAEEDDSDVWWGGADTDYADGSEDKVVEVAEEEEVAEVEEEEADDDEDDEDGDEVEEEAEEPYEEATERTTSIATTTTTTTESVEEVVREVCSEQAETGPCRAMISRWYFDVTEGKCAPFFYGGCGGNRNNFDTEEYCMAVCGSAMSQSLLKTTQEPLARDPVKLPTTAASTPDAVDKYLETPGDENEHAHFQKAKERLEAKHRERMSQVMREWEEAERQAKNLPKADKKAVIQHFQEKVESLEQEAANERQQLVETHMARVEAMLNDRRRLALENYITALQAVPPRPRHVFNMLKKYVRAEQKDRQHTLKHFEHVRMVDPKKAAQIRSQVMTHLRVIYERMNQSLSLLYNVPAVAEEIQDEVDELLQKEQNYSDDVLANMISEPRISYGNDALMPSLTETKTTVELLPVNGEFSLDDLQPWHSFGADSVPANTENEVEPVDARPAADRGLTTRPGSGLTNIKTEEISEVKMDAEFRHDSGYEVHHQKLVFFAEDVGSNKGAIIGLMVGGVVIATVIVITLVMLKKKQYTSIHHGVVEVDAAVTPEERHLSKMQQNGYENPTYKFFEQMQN
# UniProt Q8TF76, whole entry: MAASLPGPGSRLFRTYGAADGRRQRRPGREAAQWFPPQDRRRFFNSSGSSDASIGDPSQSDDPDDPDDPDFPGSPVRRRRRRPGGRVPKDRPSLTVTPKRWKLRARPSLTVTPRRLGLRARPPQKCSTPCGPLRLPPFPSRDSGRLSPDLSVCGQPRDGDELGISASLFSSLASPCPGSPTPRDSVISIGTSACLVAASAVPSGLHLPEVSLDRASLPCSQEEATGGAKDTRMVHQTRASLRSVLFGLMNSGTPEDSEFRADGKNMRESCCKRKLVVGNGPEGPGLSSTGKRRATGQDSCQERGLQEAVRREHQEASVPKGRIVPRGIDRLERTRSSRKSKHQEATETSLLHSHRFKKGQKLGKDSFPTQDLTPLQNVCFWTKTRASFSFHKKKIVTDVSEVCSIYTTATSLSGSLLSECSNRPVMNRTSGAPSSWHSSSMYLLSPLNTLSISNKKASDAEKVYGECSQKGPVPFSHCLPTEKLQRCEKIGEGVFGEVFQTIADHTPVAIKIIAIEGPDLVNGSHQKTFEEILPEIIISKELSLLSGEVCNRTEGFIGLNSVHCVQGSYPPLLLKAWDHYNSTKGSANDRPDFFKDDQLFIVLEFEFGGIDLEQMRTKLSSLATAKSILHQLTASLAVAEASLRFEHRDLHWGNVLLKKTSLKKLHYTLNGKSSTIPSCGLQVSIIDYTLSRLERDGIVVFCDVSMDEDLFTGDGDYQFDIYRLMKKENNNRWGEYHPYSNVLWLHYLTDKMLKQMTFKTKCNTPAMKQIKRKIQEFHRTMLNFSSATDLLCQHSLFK
# UniProt Q04609, whole entry: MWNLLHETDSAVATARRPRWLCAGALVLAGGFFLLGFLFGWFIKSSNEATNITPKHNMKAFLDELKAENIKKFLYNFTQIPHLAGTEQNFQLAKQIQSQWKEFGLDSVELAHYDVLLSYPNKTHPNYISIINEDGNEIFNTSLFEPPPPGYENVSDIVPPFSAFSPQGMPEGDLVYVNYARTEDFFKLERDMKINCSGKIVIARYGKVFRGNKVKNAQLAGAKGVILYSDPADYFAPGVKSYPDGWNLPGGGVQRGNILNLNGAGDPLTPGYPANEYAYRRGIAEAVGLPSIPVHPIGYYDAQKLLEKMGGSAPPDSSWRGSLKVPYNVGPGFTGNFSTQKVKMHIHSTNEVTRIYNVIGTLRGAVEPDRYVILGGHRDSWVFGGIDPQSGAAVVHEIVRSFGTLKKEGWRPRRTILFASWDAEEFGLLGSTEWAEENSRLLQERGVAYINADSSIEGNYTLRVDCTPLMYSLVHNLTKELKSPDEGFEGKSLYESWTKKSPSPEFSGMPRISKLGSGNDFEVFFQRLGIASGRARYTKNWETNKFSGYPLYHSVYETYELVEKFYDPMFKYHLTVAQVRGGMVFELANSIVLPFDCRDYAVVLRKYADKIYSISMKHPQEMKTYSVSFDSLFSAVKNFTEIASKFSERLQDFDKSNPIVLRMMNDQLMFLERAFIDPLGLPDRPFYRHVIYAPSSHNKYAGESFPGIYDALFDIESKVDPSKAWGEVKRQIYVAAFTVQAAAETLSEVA
# UniProt P31421, 19-872 limits assumed: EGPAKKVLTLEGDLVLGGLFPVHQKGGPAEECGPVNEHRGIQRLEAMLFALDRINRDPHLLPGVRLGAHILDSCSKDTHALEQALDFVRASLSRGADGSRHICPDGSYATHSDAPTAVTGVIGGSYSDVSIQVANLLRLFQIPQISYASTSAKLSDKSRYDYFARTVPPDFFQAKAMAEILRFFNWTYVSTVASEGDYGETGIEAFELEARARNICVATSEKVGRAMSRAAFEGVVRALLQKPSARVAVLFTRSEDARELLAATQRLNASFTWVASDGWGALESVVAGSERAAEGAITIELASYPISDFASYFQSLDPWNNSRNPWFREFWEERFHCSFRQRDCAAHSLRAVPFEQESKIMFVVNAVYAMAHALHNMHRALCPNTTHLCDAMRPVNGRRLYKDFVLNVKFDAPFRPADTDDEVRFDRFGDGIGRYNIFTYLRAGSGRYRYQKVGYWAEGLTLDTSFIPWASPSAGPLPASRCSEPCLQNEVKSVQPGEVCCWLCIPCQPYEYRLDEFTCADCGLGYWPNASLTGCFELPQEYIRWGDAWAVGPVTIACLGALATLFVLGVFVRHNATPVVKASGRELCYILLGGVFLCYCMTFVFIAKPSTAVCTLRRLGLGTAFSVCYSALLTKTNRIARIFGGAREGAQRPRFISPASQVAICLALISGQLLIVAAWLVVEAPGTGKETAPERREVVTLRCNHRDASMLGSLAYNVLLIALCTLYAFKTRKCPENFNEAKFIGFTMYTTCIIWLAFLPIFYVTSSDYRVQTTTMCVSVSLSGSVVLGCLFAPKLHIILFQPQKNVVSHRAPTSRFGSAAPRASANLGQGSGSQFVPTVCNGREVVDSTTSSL
# UniProt P46116, whole entry: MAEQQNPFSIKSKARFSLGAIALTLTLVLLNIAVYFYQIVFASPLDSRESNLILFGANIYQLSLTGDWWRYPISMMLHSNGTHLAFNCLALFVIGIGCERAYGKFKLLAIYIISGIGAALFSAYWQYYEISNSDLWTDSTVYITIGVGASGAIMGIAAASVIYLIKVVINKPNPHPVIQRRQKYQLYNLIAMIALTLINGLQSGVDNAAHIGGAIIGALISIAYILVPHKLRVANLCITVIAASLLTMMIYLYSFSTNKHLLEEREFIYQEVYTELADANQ
# UniProt F6S984, 25-599 limits assumed: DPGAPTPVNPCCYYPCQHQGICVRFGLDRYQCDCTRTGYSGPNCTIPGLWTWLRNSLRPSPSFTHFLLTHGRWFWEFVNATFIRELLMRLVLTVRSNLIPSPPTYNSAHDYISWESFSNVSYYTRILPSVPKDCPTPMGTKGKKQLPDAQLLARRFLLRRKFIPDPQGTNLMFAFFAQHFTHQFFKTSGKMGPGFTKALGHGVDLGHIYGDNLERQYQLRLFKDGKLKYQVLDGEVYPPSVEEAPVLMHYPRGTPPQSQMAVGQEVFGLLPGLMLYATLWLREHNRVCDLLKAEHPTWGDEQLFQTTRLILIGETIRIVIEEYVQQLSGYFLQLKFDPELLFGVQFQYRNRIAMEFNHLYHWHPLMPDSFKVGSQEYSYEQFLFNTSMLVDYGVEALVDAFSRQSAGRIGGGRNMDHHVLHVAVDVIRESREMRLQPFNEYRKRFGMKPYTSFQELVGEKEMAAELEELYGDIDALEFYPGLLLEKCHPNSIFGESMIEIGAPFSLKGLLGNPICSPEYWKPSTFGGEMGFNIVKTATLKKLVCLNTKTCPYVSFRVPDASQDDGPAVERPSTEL
# UniProt Q9UM73, whole entry, looked up: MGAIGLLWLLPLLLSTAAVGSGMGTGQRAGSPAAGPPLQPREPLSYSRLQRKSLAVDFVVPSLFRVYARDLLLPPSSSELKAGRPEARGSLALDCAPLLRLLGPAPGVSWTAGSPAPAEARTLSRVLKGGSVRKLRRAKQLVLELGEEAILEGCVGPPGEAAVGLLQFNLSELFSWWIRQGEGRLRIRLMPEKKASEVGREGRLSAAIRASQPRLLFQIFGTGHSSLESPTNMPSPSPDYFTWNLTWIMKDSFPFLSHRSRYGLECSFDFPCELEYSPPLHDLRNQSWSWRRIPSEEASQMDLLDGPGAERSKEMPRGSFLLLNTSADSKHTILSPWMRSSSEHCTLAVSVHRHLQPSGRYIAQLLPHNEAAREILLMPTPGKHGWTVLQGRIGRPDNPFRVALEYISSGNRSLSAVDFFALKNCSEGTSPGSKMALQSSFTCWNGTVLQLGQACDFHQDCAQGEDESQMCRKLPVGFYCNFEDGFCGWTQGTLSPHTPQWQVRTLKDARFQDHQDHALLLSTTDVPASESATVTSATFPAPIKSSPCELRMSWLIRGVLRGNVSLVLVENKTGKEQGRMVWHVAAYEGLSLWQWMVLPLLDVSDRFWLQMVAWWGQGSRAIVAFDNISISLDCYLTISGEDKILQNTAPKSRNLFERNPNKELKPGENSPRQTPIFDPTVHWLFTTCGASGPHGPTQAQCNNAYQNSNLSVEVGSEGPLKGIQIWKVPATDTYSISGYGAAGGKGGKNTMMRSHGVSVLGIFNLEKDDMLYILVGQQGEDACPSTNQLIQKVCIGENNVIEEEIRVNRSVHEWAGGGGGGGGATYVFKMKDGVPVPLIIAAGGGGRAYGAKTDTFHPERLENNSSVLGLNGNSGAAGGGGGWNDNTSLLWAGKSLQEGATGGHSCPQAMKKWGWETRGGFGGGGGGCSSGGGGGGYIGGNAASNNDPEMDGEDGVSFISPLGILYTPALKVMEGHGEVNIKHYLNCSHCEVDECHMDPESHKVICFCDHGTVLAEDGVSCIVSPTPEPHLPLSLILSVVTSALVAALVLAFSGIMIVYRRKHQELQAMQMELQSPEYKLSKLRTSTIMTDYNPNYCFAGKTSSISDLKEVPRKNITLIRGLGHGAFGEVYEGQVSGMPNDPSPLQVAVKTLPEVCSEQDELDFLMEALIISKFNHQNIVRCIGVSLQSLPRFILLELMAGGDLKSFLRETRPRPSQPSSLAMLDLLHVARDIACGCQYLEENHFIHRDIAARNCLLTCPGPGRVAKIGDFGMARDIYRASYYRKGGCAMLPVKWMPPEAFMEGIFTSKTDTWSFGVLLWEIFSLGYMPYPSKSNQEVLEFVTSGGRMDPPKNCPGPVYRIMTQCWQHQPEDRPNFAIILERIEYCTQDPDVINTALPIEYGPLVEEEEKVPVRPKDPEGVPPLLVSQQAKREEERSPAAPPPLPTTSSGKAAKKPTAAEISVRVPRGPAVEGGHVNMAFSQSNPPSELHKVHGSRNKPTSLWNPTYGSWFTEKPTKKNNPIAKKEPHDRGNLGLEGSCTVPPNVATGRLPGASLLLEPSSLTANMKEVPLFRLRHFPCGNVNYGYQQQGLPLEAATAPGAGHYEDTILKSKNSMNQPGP
# UniProt A0A8I3MXG6, 1-394: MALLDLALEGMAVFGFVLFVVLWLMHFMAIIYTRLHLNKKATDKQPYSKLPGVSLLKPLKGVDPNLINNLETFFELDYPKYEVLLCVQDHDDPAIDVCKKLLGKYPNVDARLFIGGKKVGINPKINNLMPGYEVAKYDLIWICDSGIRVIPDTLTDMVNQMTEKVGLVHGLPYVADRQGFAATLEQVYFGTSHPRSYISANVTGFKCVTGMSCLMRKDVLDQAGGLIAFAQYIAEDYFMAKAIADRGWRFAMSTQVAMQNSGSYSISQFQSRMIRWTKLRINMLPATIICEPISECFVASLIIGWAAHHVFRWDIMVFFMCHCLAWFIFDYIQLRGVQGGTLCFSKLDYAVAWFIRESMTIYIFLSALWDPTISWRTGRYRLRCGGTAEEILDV
# Several values in a cell are separate wells, animals, samples, runs or records. Numbers after ± are the reported error.
# ESR1: Estrogen receptor (ESR1, Homo sapiens, UniProt P03372)
SMILES,target,assay,test system,conditions,IC50
Cc1ccccc1SCC(=O)Nc1ccc2nc(SCC(=O)NC3CC3)sc2c1,ESR1,"reporter gene, antagonist",HEC-1 transfected ERα luciferase reporter,,> 50000 nM
COC(=O)[C@@H]1C(C=Nc2ccccc2O)=Cc2cc3c(cc2[C@H]1c1cc(OC)c(OC)c(OC)c1)OCO3,"Tubulin alpha/beta heterodimer (Leishmania infantum, UniProt A0A381MCS3+A4HTR0)","tubulin polymerization, inhibitor",,"37 °C, with: tubulin 1.2 mg/mL",1160 nM and 1200 nM
COc1cccc(C(=O)Nc2ccc(-c3nc4ccc(NC(=O)c5cccc(OC)c5)cc4s3)cc2)c1,"Tyrosine-protein kinase SYK, with FCER1G (SYK, Homo sapiens, UniProt P43405)","protein binding, inhibitor, TR-FRET",,,> 100000 nM
CCCCCC[C@@H]1C(=O)O[C@H]1C(=O)NCCC[C@H](NC(=O)[C@H](C)NC(=O)OCc1ccccc1)C(=O)OCc1ccccc1,"PSMB6/PSMB7, caspase-like site (Homo sapiens, UniProt P28072+Q99436)","caspase-like activity, inhibitor, fluorogenic",human 20S proteasome,"20 min preincubation, 37 °C, with: Z-Leu-Leu-Glu-AMC 20 µM",2160 ± 50 nM
COc1cc2c(cc1OC)C(=O)/C(=C/c1ccccc1OC(=O)N(c1ccccc1)c1ccccc1)C2,"Cocaine esterase (CES2, Homo sapiens, UniProt O00748)",inhibitor,,"3 min preincubation, with: fluorescein diacetate",901 ± 127 nM
CC(C)CNC(=O)CSc1nc2ccc(NC(=O)CSc3ccc4ccccc4c3)cc2s1,ESR1,"reporter gene, antagonist",HEC-1 transfected ERα luciferase reporter,,12000 nM
COCCCn1nc(-c2ccc(CC(=O)Nc3cc(C(C)(C)C)on3)cc2)c2c(N)ncnc21,"Proto-oncogene tyrosine-protein kinase receptor Ret (RET, Homo sapiens, UniProt P07949)",inhibitor,,,0.32 nM and 0.326 nM
CC(=O)N1CC=C(c2cc3c(Nc4cc5ncsc5cc4F)ncnc3s2)CC1,"Receptor-interacting serine/threonine-protein kinase 2 (RIPK2, Homo sapiens, UniProt O43353)","kinase activity, inhibitor",,,11 nM
N#Cc1ccc2[nH]cc(/C=C/c3ccccc3)c2c1,"Amyloid-beta precursor protein, amyloid-beta peptide (APP, Homo sapiens, UniProt P05067)","Aβ42 oligomerisation, ELISA",,,> 20000 nM
CC(C)=CCC/C(C)=C/CC/C(C)=C/CC/C(C)=C/CC1=C(C)C(=O)c2ccccc2C1=O,"Protein-glutamine gamma-glutamyltransferase (TGM2, Homo sapiens, UniProt P21980)","enzyme activity, inhibitor, biotin-pentylamine incorporation",,without DTT,3000 ± 2800 nM
Fc1cnccc1-c1ccc(C2(c3ccc(Cl)cc3)CCNCC2)cc1,"Serine/threonine-protein kinase LATS1 (LATS1, Homo sapiens, UniProt O95835)","kinase activity, inhibitor, radiometric HotSpot",,with: ATP 10 µM,619 nM
COc1cc2c(SCCCN)c3ccccc3nc2cc1Cl,"Serine/threonine-protein kinase haspin (HASPIN, Homo sapiens, UniProt Q8TF76)","inhibitor, TR-FRET",,with: histone H3 peptide,79 nM
CCCC(=O)N1CCC(NC(=O)Nc2ccc(OC(F)(F)F)cc2)CC1,"Bifunctional epoxide hydrolase 2 (EPHX2, Homo sapiens, UniProt P34913)","enzyme activity, inhibitor, fluorescence",,with: CMNPC substrate,2.1 nM
O=C(NCc1ccc(Cl)cc1)[C@@H]1C[C@@H](O)CN1C(=O)c1cccc(F)c1,"von Hippel-Lindau disease tumor suppressor, with elongin B, C (VHL, Homo sapiens, UniProt P40337)","binding, fluorescence polarization",,"10% DMSO, with: FAM-HIF1α peptide tracer",38500 ± 500 nM
O=C(O)CCC(NS(=O)(=O)CCl)C(=O)O (centres unmarked),"Glutamate carboxypeptidase 2 (FOLH1, Homo sapiens, UniProt Q04609)","enzyme activity, inhibitor, HPLC",,"15 min, pH 7.4, 37 °C, 1% Triton X-100, with: 10 mM glutamate dipeptide substrate",17200 nM
Cc1ccc(NC(=O)c2cccc(C(F)(F)F)c2)cc1Nc1ncccc1-c1cc(Nc2ccc(OCCNC(=O)CCCC(=O)NCc3ccc(COc4nc(N)nc5[nH]cnc45)cc3)cc2)ncn1,"Proto-oncogene tyrosine-protein kinase Src, SH3-SH2-kinase domains (SRC, Gallus gallus, UniProt P00523)","enzyme activity, inhibitor",,"unphosphorylated form, enzyme 10 nM",440 ± 30 nM
CCC(=O)Nc1ccc(-c2csc(NC(=O)c3ccc(F)c(OC)c3)n2)cn1,"Scavenger receptor class B member 1 (Mus musculus, UniProt Q61009)","DiI-HDL uptake, inhibitor",mouse cells,with: DiI-HDL,200 nM
O=C(CCl)N1CCN(c2cc(N3CCCC3)nc(N3CCCC3)n2)CC1,"Caspase-1 (CASP1, Homo sapiens, UniProt P29466)",inhibitor,,60 min preincubation,424 ± 230 nM
OC[C@H]1[C@@H](O)[C@H](O)[C@@H](O)CN1CCCCCOCCc1ccsc1,"Lysosomal acid glucosylceramidase (GBA1, Homo sapiens, UniProt P04062, R534H)","inhibitor, 4-methylumbelliferyl glucoside",,,205000 nM
NC(=O)c1cn(-c2ccc(F)cc2)c2ccc(CN3CCS(=O)(=O)CC3)cc2c1=O,"Metabotropic glutamate receptor 2 (Grm2, Rattus norvegicus, UniProt P31421)","calcium mobilization, negative allosteric modulator",,,870 nM
O=C(O)c1cc(C(=O)N[C@@H](Cc2ccc(O)cc2)C(=O)O)cc([C@H]2CCN[C@@H]2C(=O)O)c1,"Glutamate receptor ionotropic, NMDA 2B, with GluN1 (Grin2b, Rattus norvegicus, UniProt Q00960)","ion current, antagonist, two-electrode voltage clamp",Xenopus oocytes,"GluN1/GluN2B, with: glycine 100 µM and glutamate 1 µM",1730 ± 50 nM
CC(=NN=C1NC(=O)C(CC(=O)Nc2ccc(Cl)c(Cl)c2)S1)c1cccs1 (centres unmarked),"Protein phosphatase 3 catalytic subunit alpha (PPP3CA, Homo sapiens, UniProt Q08209)","phosphatase activity, inhibitor, malachite green",,with: phosphopeptide substrate at Km,> 200000 nM
COc1ccc(-c2noc(C3CN(C(=O)OC(C(F)(F)F)C(F)(F)F)C3)n2)cc1,"Monoglyceride lipase (Rattus norvegicus, UniProt Q8R431)","enzyme activity, inhibitor",rat brain cytosol,"1 h preincubation, with: [3H]2-OG substrate",8.4 ± 0.2 nM
COc1ccc(C2Oc3cc(O)cc(O)c3C(=O)C2C2C(=O)c3c(O)cc(O)cc3OC2c2ccc(O)cc2)cc1 (centres unmarked),"Rhomboid protease AarA (Providencia stuartii, UniProt P46116)","inhibitor, fluorogenic peptide substrate",,,9400 nM
CCOC(=O)C1=C(C)NC2=C(C(=O)CC(C)(C)C2)C1c1ccc(OCC(=O)NN=Cc2cccc(C=O)c2)cc1OCC(=O)NN=Cc1cccc(C=O)c1 (centres unmarked),"Alpha-glucosidase MAL32 (MAL32, Saccharomyces cerevisiae, UniProt P38158)",inhibitor,,"pH 6.8, with: p-nitrophenyl α-D-glucopyranoside",6700 ± 380 nM
COc1ccc2c(Nc3ccc(NC(=O)c4ccc(C)cc4)c(O)c3)ccnc2c1,"Serine/threonine-protein kinase N3 (PKN3, Homo sapiens, UniProt Q6P5Z2)","binding, split-luciferase",,,11000 nM
COc1ccc(-c2nc(C(F)(F)F)nn2-c2ccc(OC)nc2)cc1,"Prostaglandin G/H synthase 1 (Macaca mulatta, UniProt F6S984)","thromboxane B2 production, inhibitor, enzyme immunoassay",monkey whole blood,,5.1 ± 1.5 nM
O=C(Nc1ccc(Br)c(F)c1)C(NS(=O)(=O)c1cccs1)c1ccccc1 (centres unmarked),"Uracil nucleotide/cysteinyl leukotriene receptor, long isoform (GPR17, Homo sapiens, UniProt Q13304)","calcium mobilization, antagonist",1321-N1,,11700 ± 260 nM
CN1CC[C@H](c2c(O)cc(O)c3c(=O)cc(-c4ccccc4F)oc23)[C@H](O)C1,"Cyclin-dependent kinase 7 (CDK7, Homo sapiens, UniProt P50613)",,,ATP at Km,> 10000 nM
CN(C)c1ccc(CCCN2CCc3ccc(/C=C/C(=O)NO)cc3C2=O)cc1,"Histone deacetylase 3 (HDAC3, Homo sapiens, UniProt O15379)","enzyme activity, inhibitor",,,< 100 nM
N#Cc1ccccc1NC(=O)CSc1nc(-c2ccccc2)cc(C(F)(F)F)c1C#N,"Trace amine-associated receptor 1 (TAAR1, Homo sapiens, UniProt Q96RJ0)",,,,> 10000 nM
COCCCNc1nc(-c2ccc(-c3ccccc3)cc2)cs1,"ALK tyrosine kinase receptor (ALK, Homo sapiens, UniProt Q9UM73)",ELISA,,,27000 nM
O=C([C@H]1O[C@H](O[C@H]2[C@H](O[C@@H]3O[C@H](C(=O)N4CCCC4)[C@@H](O[C@H]4O[C@@H](CNS(=O)(=O)O)[C@@H](OCc5ccc6ccccc6c5)[C@H](OCc5ccc6ccccc6c5)[C@H]4NS(=O)(=O)O)[C@H]3OCc3ccc4ccccc4c3)[C@@H](OCc3ccc4ccccc4c3)[C@H](NS(=O)(=O)O)C[C@@H]2NS(=O)(=O)O)[C@H](NS(=O)(=O)O)[C@@H](OCc2ccc3ccccc3c2)[C@@H]1OCc1ccc2ccccc2c1)N1CCCC1,"Heparanase (HPSE, Homo sapiens, UniProt Q9Y251)","enzyme activity, inhibitor, TR-FRET",,,< 25 nM
O=C(CC1Cc2ccccc2C1)N[C@H](CN1CCC1)[C@H](O)c1ccc2c(c1)OCCO2,"Ceramide glucosyltransferase (UGCG, Canis lupus familiaris, UniProt A0A8I3MXG6)","inhibitor, item: glucosylceramide",MDCK,24 h,21.1 nM
O=C(OC(C(F)(F)F)C(F)(F)F)N1CCc2ccc(Br)cc2C1,"Monoacylglycerol lipase ABHD6 (ABHD6, Homo sapiens, UniProt Q9BV23)","inhibitor, fluorescence",,,394 ± 4.3 nM

# Repeated from above:
SMILES,target,assay,test system,conditions,IC50
CCCCCC[C@@H]1C(=O)O[C@H]1C(=O)NCCC[C@H](NC(=O)[C@H](C)NC(=O)OCc1ccccc1)C(=O)OCc1ccccc1,"PSMB6/PSMB7, caspase-like site (Homo sapiens, UniProt P28072+Q99436)","caspase-like activity, inhibitor, fluorogenic",human 20S proteasome,"20 min preincubation, 37 °C, with: Z-Leu-Leu-Glu-AMC 20 µM",2160 ± 50 nM
COc1cc2c(cc1OC)C(=O)/C(=C/c1ccccc1OC(=O)N(c1ccccc1)c1ccccc1)C2,"Cocaine esterase (CES2, Homo sapiens, UniProt O00748)",inhibitor,,"3 min preincubation, with: fluorescein diacetate",901 ± 127 nM
CC(C)CNC(=O)CSc1nc2ccc(NC(=O)CSc3ccc4ccccc4c3)cc2s1,ESR1,"reporter gene, antagonist",HEC-1 transfected ERα luciferase reporter,,12000 nM
COCCCn1nc(-c2ccc(CC(=O)Nc3cc(C(C)(C)C)on3)cc2)c2c(N)ncnc21,"Proto-oncogene tyrosine-protein kinase receptor Ret (RET, Homo sapiens, UniProt P07949)",inhibitor,,,0.32 nM and 0.326 nM
